Experimental data pooled from the literature.
Parts stem from different laboratories: compare values within a part only.

Block 1 — method: protein binding microarray; form: double-stranded DNA, one strand shown; medium: in vitro; tested at: not given; baseline: not given; direction: higher = stronger binding
Target: Histone acetyltransferase KAT6A, winged helix 1, GST fusion (KAT6A, Homo sapiens, UniProt Q92794, residues 1-85)
Notes: 8-mer, flanks averaged, mean of 2 arrays, mostly near background
Construct (chain): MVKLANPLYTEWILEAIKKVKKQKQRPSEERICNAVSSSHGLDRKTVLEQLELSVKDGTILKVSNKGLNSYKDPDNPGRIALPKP
Sequence | E-score
GTTTCTGA | -0.0573
GATTCACC | 0.102
CACGAGGC | -0.0891
GAAGGCAA | -0.233
CGTAAAAC | 0.162
GGCGTGCA | 0.0958
CAGGTTAC | 0.0281
ATTCCTGA | -0.227
CATCCCCG | 0.281
GCGGGCCC | 0.384
GGTGTCGA | 0.0475
CTATCGAG | -0.119
CTCAGCTA | -0.235
CTAGCGAA | -0.133
AACAAAAC | -0.162
ATGATTTG | -0.121
TCCGTTAA | 0.214
ATCCATCC | -0.194
CGGATACA | 0.201

Block 2 — method: RNAcompete; form: RNA; medium: in vitro; tested at: 20 nM; notes: 7-mer, probes averaged, single round; baseline: mean of 7-mers; direction: higher = stronger binding
Target: PABPC1L2, full length, GST fusion (mouse, UniProt A0ABA7IW68)
Residues (chain): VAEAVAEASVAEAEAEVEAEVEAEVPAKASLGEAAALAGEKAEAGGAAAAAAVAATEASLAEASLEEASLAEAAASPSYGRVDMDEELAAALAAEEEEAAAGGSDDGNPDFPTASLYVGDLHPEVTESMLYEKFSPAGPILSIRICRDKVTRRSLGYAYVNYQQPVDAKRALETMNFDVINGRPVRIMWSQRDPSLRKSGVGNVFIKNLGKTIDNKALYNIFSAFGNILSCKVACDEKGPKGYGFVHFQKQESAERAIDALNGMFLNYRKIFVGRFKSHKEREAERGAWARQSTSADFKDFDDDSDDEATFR
Sequence | 7-mer Z-score
UUGCUCA | -0.235
UGUACGU | -0.291
AGGAAUA | 0.0406
UUUCAUU | -0.371
UUUACUC | -0.3
CGGAUCC | -0.0645
AAGAUAC | 0.521
AGAUUGA | -0.186
GAUUCAA | -0.00833
AGCGCUA | -0.0355
UAAUGUG | 0.000733
UGUGAGC | -0.142
UUAACUG | -0.273
UGACGGU | -0.0409
CGAAGCU | 0.0533
UUCGCAU | -0.421

Block 3 — method: aptamer microarray, sandwich; form: DNA with 2'F-ANA; medium: in vitro; tested at: 200 nM; added: Cy3 exosite-II aptamer, 400 nM; direction: higher = stronger binding; sequence: GGTTGGTGTGGTTGG
Target: Prothrombin, mature alpha-thrombin (F2, Homo sapiens, UniProt P00734)
Notes: whole 15-mer aptamer, many near background
Modification | mean fluorescence intensity [a.u.]
2'F-ANA at 2 5 7 8 9 10 12 15 | 97.8
2'F-ANA at 1 4 5 6 7 8 10 12 13 | 47.5
2'F-ANA at 3 4 5 9 10 11 | 60.4
2'F-ANA at 2 3 4 6 9 10 11 12 13 14 | 131
2'F-ANA at 1 2 3 4 7 8 9 10 15 | 58.2
2'F-ANA at 1 2 4 5 7 8 9 10 12 13 14 15 | 50.6
2'F-ANA at 1 2 3 4 7 8 9 10 12 14 | 55.9
2'F-ANA at 1 2 3 4 5 6 8 9 10 11 12 13 14 | 50.6
2'F-ANA at 1 3 9 10 11 12 13 15 | 105
2'F-ANA at 1 3 4 6 8 11 14 | 65.2
2'F-ANA at 1 5 7 8 9 11 13 15 | 53.1
2'F-ANA at 2 3 7 9 10 12 15 | 412
2'F-ANA at 8 10 11 12 14 | 103
2'F-ANA at 2 6 7 11 12 13 14 15 | 171
2'F-ANA at 4 5 7 9 10 11 12 13 | 55
2'F-ANA at 1 2 3 8 9 11 13 | 169
2'F-ANA at 1 3 4 5 8 10 11 14 | 50.6
2'F-ANA at 3 4 7 9 15 | 723
2'F-ANA at 2 3 5 7 8 10 12 13 14 | 67.4
2'F-ANA at 1 3 5 8 9 11 12 13 14 15 | 57.3
2'F-ANA at 1 4 5 6 11 13 14 15 | 47.4
2'F-ANA at 2 4 7 8 10 11 13 14 15 | 61.9
2'F-ANA at 4 9 10 12 14 15 | 61.2
2'F-ANA at 1 6 7 10 12 13 | 65.4

Block 4 — method: RNA Bind-n-Seq; form: RNA; medium: in vitro; tested at: 365 nM; baseline: no-protein control; direction: higher = stronger binding
Target: RNA binding protein fox-1 homolog 2, RRM domain, GST-SBP tag (RBFOX2, Homo sapiens, UniProt O43251-10, residues 100-194)
Notes: natural RNA segment, single round, ends assumed
Shared flanks, not repeated: GGGAGUUCUACAGUCCGACGAUC … UGGAAUUCUCGGGUGCCAA
Residues (chain): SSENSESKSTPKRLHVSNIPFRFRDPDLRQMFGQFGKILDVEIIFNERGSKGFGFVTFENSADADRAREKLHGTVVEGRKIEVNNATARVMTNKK
Sequence | RBNS enrichment (R)
AGCAGAUGAAGGGAAGGCUCAGAAGGGCAUCUCCUGUAGCUCCUGGCAGCUGGUUCUGGUGGCACUGAGAUGAGUGCCACCAGAGGCUCACACUCACUCUCUGUUGAGCU | 0.257
ACACGAGCCCAUUUUUACCAAGAUUUGAUCAGUGUCUUUACUGAGCUGGAAGCCUCUGAAAGUUAUUAAAGGACAGAAUCCAAAAGAAUGCCUUUAAUUCUUGUCUGAGA | 0.25
CCGGGUGUGGCACGCACCUGUAGUCCCAGCUACUUGGGAGCCUGAGGCAGGAGAAUCGCUUGAACCUGGGAAGUGGAGGUUGAGUGAGCCGGGACCGUGCCAUUGUACUC | 1.05
AGUUUGUUAUUUCUCAAGUAUACAGCACCGAGGUCAGUCAGUUGUCACUCCCUGAUGACGUGUAGCUGCCCGCUCACUCCAUGUGAAGAAGAGCUCCAGCAGGCUACACA | 0.273
AGCCCUUGCACAGCUGGAGAAAUGGCAUCAUUAUAAGCUAUGAGUUGAAAUGUUCUGUCAAAUGUGUCUCACAUCUACACGUGGCUUGGAGGCUUUUAUGGGGCCCUGUC | 0.554
GUGUCUGCCUCUGGCUGCUGGGAGAAGCUGUUUUUCAGUUUCAGAAGCAGGCAGGACAAAGGCCAGGACUGUGGUUUGGGAGGCAUUUGGCCCUGGAAGGUCCUGGCACA | 0.71
CCCAGUGGCUGCCAUGGUCCUCUUCAGGCUCAGAGAUGGGUCUAGCCCUGGCCUUGCUCUGAUCAGCCUGCUCCUGGGGCAUGGGUGCUCCCGCUUCUGCUCUGCUUGGG | 0.279
CUGCCUUCAACAGGGCCUCUUAUGGGAGGGGCUCCAGGGAUCCUUUAAGGGUAACCCUGCUUUCAAGGAGGAAGUCUAUGUCUAUGGAAAGUUAAGUAGGAGGGAGAGAG | 0.927

Block 5 — method: RNA Bind-n-Seq; form: RNA; medium: in vitro; tested at: 1 µM; notes: whole 134-nt RNA, ends assumed; added: 150 mM KCl; baseline: input library; direction: higher = stronger binding
Target: Ras GTPase-activating protein-binding protein 1, C-terminal RGG region (G3BP1, Homo sapiens, UniProt Q13283)
Chain of UniProt Q13283 (whole entry, looked up): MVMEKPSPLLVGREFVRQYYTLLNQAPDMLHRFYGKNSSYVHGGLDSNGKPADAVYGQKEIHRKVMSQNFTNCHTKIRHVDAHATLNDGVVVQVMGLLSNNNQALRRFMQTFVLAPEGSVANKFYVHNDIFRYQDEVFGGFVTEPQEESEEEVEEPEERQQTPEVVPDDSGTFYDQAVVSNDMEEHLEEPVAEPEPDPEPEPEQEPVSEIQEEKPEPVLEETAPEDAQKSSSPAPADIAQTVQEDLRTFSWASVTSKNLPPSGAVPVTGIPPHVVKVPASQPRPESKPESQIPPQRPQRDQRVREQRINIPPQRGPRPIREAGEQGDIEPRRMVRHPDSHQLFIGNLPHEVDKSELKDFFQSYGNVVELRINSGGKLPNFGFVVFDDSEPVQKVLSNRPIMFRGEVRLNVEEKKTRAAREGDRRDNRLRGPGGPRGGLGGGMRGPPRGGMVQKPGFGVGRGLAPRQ
Shared flanks, not repeated: GGGAGUUCUACAGUCCGACGAUC … UGGAAUUCUCGGGUGUCAAGG
Sequence | log2 enrichment
AAGUCCUGUGCUACACAUCGUAUGUACCGAAUCGGAAAAAAAGGUUUUUUUGGAGGAAAGUAUUAUGUUACGCCGUUCGGAUCUGCACUU | -2.27
CACAGACAACUCGCACCCACACAGACACAGAGGGAAGGGGUUGGGAUGGGGACAGGGUGCACAGCAGGGCGGGGUAGGACCCCAGCCCCU | 0.379
UCCACCCCUUCUUCCUCCCUUUAACUUAUCCAUUCACUUAAAACAUUACCUGGUCAUCUGGUAAGCCCGGGACAGUAAGCCGAGUGGCUG | -0.0048
UCCUCAAGUCCUGUGCUACACAUCGUAUGUACCGAAUCGGGCGGGCGGCGGGAAAGUAUUAUGUUACGCCGUUCGGAUCUGCACUUCCAG | -0.25
AGUCCUGUGCUACACAUCGUAUGUACCGAAUCGGGAAAAAAAGGGUUUGGGAAAGGGAAAGUAUUAUGUUACGCCGUUCGGAUCUGCACU | 0.505
CCUGUGCUACACAUCGUAUGUACCGAAUCGGUUUUUUUGGUUUUUUUGGGUUUUUUUGGGAAAGUAUUAUGUUACGCCGUUCGGAUCUGC | -1.86
UCCUCAAGUCCUGUGCUACACAUCGUAUGUACCGAAUCGGUUGGUUGGUUGGAAAGUAUUAUGUUACGCCGUUCGGAUCUGCACUUCCAG | -0.0836
AAGUCCUGUGCUACACAUCGUAUGUACCGAAUCGGAAAAGGAAAAGGGGAAAAGGGAAAGUAUUAUGUUACGCCGUUCGGAUCUGCACUU | -1.51
UGGGAAGUGGAUUUUGUUUAUUUUUUUAGCUCAUUUCCAGGGGUGGGAAUUUUUUUUUAAUAUGUGUCAUGAAUAAAGUUGUUUUUGAAA | 3.25

For quick reference, copied from above (block 3):
Modification | mean fluorescence intensity [a.u.]
2'F-ANA at 1 2 3 8 9 11 13 | 169
2'F-ANA at 2 4 7 8 10 11 13 14 15 | 61.9
2'F-ANA at 2 3 7 9 10 12 15 | 412
2'F-ANA at 1 3 4 6 8 11 14 | 65.2
2'F-ANA at 1 2 3 4 7 8 9 10 12 14 | 55.9
2'F-ANA at 1 4 5 6 11 13 14 15 | 47.4
2'F-ANA at 1 3 5 8 9 11 12 13 14 15 | 57.3
2'F-ANA at 2 5 7 8 9 10 12 15 | 97.8
2'F-ANA at 1 4 5 6 7 8 10 12 13 | 47.5
2'F-ANA at 1 2 3 4 7 8 9 10 15 | 58.2
2'F-ANA at 4 9 10 12 14 15 | 61.2
2'F-ANA at 1 6 7 10 12 13 | 65.4
2'F-ANA at 3 4 5 9 10 11 | 60.4
